Assay results pooled from the literature.
Each numbered part is a random draw from the data of one study; scales do not carry over between parts. Changes are numbered by the printed parent chain.

Set 1 — technique: DHFR PCA, deep sequencing; medium: yeast; together with: (+)-ABA 0 µM; baseline: wild-type fitted maximum; reading: higher = stronger binding
Target: ABI1, truncated, D143A, DHFR fusion (Arabidopsis thaliana)
Notes: methotrexate growth selection, single substitutions
Starting sequence: PYL1, truncated, DHFR fusion (Arabidopsis thaliana); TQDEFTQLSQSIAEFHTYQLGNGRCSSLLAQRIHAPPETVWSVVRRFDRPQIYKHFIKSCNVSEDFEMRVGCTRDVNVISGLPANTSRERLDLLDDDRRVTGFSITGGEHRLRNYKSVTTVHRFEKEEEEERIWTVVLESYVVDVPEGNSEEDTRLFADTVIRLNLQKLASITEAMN; partner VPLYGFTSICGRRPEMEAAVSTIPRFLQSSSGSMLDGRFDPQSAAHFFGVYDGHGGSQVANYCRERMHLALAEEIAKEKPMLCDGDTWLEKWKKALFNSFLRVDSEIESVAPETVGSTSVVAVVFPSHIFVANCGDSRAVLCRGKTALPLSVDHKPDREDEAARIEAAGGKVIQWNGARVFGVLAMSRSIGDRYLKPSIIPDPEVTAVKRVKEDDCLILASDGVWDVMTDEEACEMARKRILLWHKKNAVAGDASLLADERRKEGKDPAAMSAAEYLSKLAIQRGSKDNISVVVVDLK
`R88H`: “relative binding score” 48.8%.
`F47P` — result for “relative binding score”: -1.98%.
Under “relative binding score”, `K126S` is recorded as 58.7%.
For `R32E`, “relative binding score” read 30%.
`T39A` — result for “relative binding score”: 16.8%.
`H122P` — result for “relative binding score”: 7.13%.
Under “relative binding score”, `E129G` is recorded as 55.6%.
`E151T`: “relative binding score” 15.9%.
`P36T`: “relative binding score” 18.2%.
`V76P`: “relative binding score” -4.68%.
`V137C`: “relative binding score” -8.29%.
`F124P`: “relative binding score” 2.61%.
`N114Y`: “relative binding score” 4.43%.
For `N61W`, “relative binding score” read 14.4%.
For `V44L`, “relative binding score” read 4.35%.
`S11Q`: “relative binding score” 26.3%.
`E130I`: “relative binding score” 9.61%.
For `R113C`, “relative binding score” read 8.31%.
Under “relative binding score”, `D96W` is recorded as -9.67%.
`T119F` — result for “relative binding score”: -12.8%.
`E38V`: “relative binding score” -2.05%.
`Q31N` — result for “relative binding score”: -1.42%.
`V142G`: “relative binding score” 1.93%.
`A158Y`: “relative binding score” 18%.

Set 2 — target: NFE2, bZIP domain (human); technique: DHFR protein complementation; medium: yeast; baseline: wild-type JUN-FOS pair; reading: higher = stronger binding
Notes: single substitutions, most at no-binding floor
Starting sequence: JUN, bZIP domain (human); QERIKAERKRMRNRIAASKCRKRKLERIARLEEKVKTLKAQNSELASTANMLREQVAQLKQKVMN; partner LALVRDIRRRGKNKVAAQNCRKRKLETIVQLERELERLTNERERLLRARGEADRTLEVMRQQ
For `N42F`, the binding fitness was -1.49 natural log.
`V35H` gave a binding fitness of -1.46 natural log.
`K36N` gave a binding fitness of -1.39 natural log.
With `A29D` the binding fitness was -1.39 natural log.
With `V56F` the binding fitness was -1.44 natural log.
For `V56Y`, the binding fitness was -1.51 natural log.
`A49L` gave a binding fitness of -1.22 natural log.
With `Q58S` the binding fitness was -1.3 natural log.
For `I28Y`, the binding fitness was -1.16 natural log.
For `L31G`, the binding fitness was -1.47 natural log.
The binding fitness of `T37Q` is reported as -1.39 natural log.
`E44L` has a binding fitness of -1.41 natural log.
With `A57P` the binding fitness was -1.48 natural log.
For `S47A`, the binding fitness was -1.31 natural log.
`E33V` has a binding fitness of -1.43 natural log.
For `Q55M`, the binding fitness was -1.53 natural log.
For `V35S`, the binding fitness was -1.49 natural log.
`E54K` has a binding fitness of -1.19 natural log.
The binding fitness of `E54C` is reported as -1.52 natural log.
With `K34Q` the binding fitness was -1.42 natural log.
With `M51R` the binding fitness was -1.39 natural log.
`L45S` gave a binding fitness of -1.51 natural log.
With `A29L` the binding fitness was -1.43 natural log.
The binding fitness of `T37H` is reported as -1.32 natural log.

Set 3 — technique: RNA Bind-n-Seq; form: RNA; medium: in vitro; tested at: 1 µM; notes: whole 134-nt RNA, ends assumed; together with: 150 mM KCl; baseline: input library; reading: higher = stronger binding
Target: Ras GTPase-activating protein-binding protein 1, RRM domain (G3BP1, Homo sapiens, UniProt Q13283)
Chain of UniProt Q13283 (whole entry, looked up): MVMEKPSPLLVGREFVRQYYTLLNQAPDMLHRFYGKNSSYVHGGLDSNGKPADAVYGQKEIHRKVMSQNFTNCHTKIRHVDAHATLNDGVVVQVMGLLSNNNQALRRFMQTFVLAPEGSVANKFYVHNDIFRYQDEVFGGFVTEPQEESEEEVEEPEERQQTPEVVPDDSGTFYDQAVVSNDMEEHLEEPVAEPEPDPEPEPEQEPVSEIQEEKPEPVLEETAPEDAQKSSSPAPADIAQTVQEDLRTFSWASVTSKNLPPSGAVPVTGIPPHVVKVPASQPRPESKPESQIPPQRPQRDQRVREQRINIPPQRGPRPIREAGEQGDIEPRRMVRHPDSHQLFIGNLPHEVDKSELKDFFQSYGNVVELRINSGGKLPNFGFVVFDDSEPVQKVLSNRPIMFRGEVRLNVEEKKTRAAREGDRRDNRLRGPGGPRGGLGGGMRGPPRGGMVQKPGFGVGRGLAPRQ
Shared flanks, not repeated: GGGAGUUCUACAGUCCGACGAUC … UGGAAUUCUCGGGUGUCAAGG
`GUCCUGUGCUACACAUCGUAUGUACCGAAUCGGUUUUUUUGGAAAAAAAGGAAAAAGGAAAGUAUUAUGUUACGCCGUUCGGAUCUGCAC` gave a log2 enrichment of -0.339.
For `CACCGACAACACGCACCCACACAGACACAGAGGGAAGGGGUUGGGAUGGGGACAGGGUGCACAGCAGGGCGGGGUAGGACCCCAGCCCCU`, the log2 enrichment was -0.0481.
`CCUGUGCUACACAUCGUAUGUACCGAAUCGGGGUUUUUUGGGUUUUUUGGGUUUUUUGGGGAAAGUAUUAUGUUACGCCGUUCGGAUCUG` gave a log2 enrichment of -0.216.
`GUCCUGUGCUACACAUCGUAUGUACCGAAUCGGGAAAAAGGGGAAAAAGGGAAAAAGGAAAGUAUUAUGUUACGCCGUUCGGAUCUGCAC` gave a log2 enrichment of 0.00124.
For `AAGUCCUGUGCUACACAUCGUAUGUACCGAAUCGGGGUUUUGGGUUUUGGGUUUUGGAAAGUAUUAUGUUACGCCGUUCGGAUCUGCACU`, the log2 enrichment was -0.22.
`CCUGUGCUACACAUCGUAUGUACCGAAUCGGGCCCCCCCGGCCCCCCCGGGGCCCCCCCGGAAAGUAUUAUGUUACGCCGUUCGGAUCUG` has a log2 enrichment of -0.497.
For `UGGGAGGUGGAUUUUGUUUAAUUUUUUAGCUCAUUUCCAGGGGUGGGAAUUUUUUUUUAAUAUGUGUCAUGAAUAAAGUUGUUUUUGAAA`, the log2 enrichment was 1.08.
`AGUCCUGUGCUACACAUCGUAUGUACCGAAUCGGGGAAAAAGGGAAAAAGGAAAAAGGAAAGUAUUAUGUUACGCCGUUCGGAUCUGCAC` has a log2 enrichment of -0.0555.
`UGUGUCUUGCUGAAUCAGGGCUCUCUUAUCCCUGCCAUCGACUUACAGUGGGAAGAAGAUCUUCACCUGCACAGACCCGGGAACAGUCGG` gave a log2 enrichment of -0.0655.
`CCUCAAGUCCUGUGCUACACAUCGUAUGUACCGAAUCGGUUUGGAAAGGAGGAAAGUAUUAUGUUACGCCGUUCGGAUCUGCACUUCCAG` gave a log2 enrichment of -0.112.
With `UCAAGUCCUGUGCUACACAUCGUAUGUACCGAAUCGGUUUUUUUGGUGGUUUGGAAAGUAUUAUGUUACGCCGUUCGGAUCUGCACUUCC` the log2 enrichment was -0.196.
`CCUCAAGUCCUGUGCUACACAUCGUAUGUACCGAAUCGGUUUUUGGAGGAGGAAAGUAUUAUGUUACGCCGUUCGGAUCUGCACUUCCAG` gave a log2 enrichment of -0.172.
`ACCAUGCAGGUAAACAUCUUUGGGAAGUGGGGCAAGGGGGGGAUAGGGAGGGGGGUAACACUUUGGGAACAGGUGGUCCCAGGUCGUUUC` has a log2 enrichment of -0.332.
For `CCUCAAGUCCUGUGCUACACAUCGUAUGUACCGAAUCGGUUUUUGGUGGUGGAAAGUAUUAUGUUACGCCGUUCGGAUCUGCACUUCCAG`, the log2 enrichment was -0.201.

Set 4 — target: CCNB3, cyclin fold, Cln2 fusion (human); technique: yeast growth competition, sequencing; medium: yeast; notes: weak parent motif; baseline: not given; reading: higher = stronger binding
Starting sequence: ORC1 docking peptide (human); PRARKRLELGNLG
`L7V` — result for “normalised enrichment score”: -0.398.
Under “normalised enrichment score”, `G13K` is recorded as 0.128.
`A3N` — result for “normalised enrichment score”: 0.358.
`L7S`: “normalised enrichment score” -0.035.
`L9P`: “normalised enrichment score” -0.168.
Under “normalised enrichment score”, `L7W` is recorded as 0.147.
`L7G`: “normalised enrichment score” -0.0664.
For `E8D`, “normalised enrichment score” read 0.73.
`R4T`: “normalised enrichment score” 0.37.
`R2M` — result for “normalised enrichment score”: 0.839.
`E8R` — result for “normalised enrichment score”: -0.0422.
`L12Y` — result for “normalised enrichment score”: -0.134.
`L12A`: “normalised enrichment score” 0.527.
`P1E`: “normalised enrichment score” 0.182.
Under “normalised enrichment score”, `G10D` is recorded as 0.293.
`R2D` — result for “normalised enrichment score”: 0.296.

Set 5 — technique: protein-binding microarray; form: double-stranded DNA, one strand shown; medium: in vitro; tested at: 0.8 µM; notes: whole 60-bp probe, no competitor; reading: higher = stronger binding; shared flanks, not repeated: … GTCTTGATTCGCTTGACGCTGCTG
Target: Centromere-binding protein 1, full length, N-terminal tag (CBF1, Saccharomyces cerevisiae, UniProt P17106, residues 1-351)
Chain of UniProt P17106 (whole entry, looked up): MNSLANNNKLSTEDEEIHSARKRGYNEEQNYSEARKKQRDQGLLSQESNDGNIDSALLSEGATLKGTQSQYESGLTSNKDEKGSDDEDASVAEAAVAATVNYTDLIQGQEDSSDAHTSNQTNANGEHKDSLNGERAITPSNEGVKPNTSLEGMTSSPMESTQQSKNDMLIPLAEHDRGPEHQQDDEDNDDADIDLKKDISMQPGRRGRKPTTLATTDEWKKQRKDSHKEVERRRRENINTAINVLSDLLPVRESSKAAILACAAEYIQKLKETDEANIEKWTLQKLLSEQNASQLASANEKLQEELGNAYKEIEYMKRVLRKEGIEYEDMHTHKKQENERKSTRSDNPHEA
The fluorescence intensity of `CTAGTGTAGATAGGTGACGCTAGAGCCGTATATTTC` is reported as 511 a.u.
With `GAACGTTTGTTGGAGCACGTGGGAAATCCCCAATAG` the fluorescence intensity was 5140 a.u.
`GAAGGTTAAGAAAAACACCTGACAAATAATAATTAG` gave a fluorescence intensity of 1750 a.u.
`GAATTATATGTGCACCACGCATTTATCTAACCATAG` has a fluorescence intensity of 532 a.u.
`CTAGGAAATCATCTGCACGTATGCTATATCGAATTC` gave a fluorescence intensity of 567 a.u.
`TGTACGAAGCTATGACGCATGATTATAGTAGTTAGG` has a fluorescence intensity of 577 a.u.
`GAATAGGCACTATGAAGCGTGCGCCTCGTATACTAG` has a fluorescence intensity of 495 a.u.
`GAATCAGTTCAAGTTCAGCTGATCTAAGTAGCTTAG` gave a fluorescence intensity of 819 a.u.
`CTATTAACAATTGATAACGTGCCCTTTATTGAATTC` has a fluorescence intensity of 1120 a.u.
With `CTATGAAAGAGCCATGGTCACGTTGGGCACATTTTC` the fluorescence intensity was 2390 a.u.
With `CTAGTTTTGTGCATTAACGTGGCATATAATTAGTTC` the fluorescence intensity was 645 a.u.
With `CTATTTTCTTCACATCAGGCTTCGCATAGAAAATTC` the fluorescence intensity was 547 a.u.
For `CCTAACTACTATAGCAATGTCACATAGCTTCGTACA`, the fluorescence intensity was 511 a.u.
With `GAATTGTGATACAGCCACATGAACAGATTCCCATAG` the fluorescence intensity was 558 a.u.
`CTAAAGAAACGAATTCACCTGATTGCAGCTGTATTC` has a fluorescence intensity of 610 a.u.
The fluorescence intensity of `GAATATTAAAAATATCAGCAGAGACGTAAAAGTTAG` is reported as 534 a.u.
For `GAATGTCAAAGCGCAAACGTGGGAAGTGACGATTAG`, the fluorescence intensity was 534 a.u.
`CTAGGATATTAACCTCACAACGTGATAGAAACCTTC` has a fluorescence intensity of 1210 a.u.
With `CTACGGTTTTCATATCATCACCCTCTGTTGTCCTTC` the fluorescence intensity was 557 a.u.
With `TGTACGAAGCTATAGCACGTGTTTATAGTAGTTAGG` the fluorescence intensity was 10900 a.u.
For `GAAATTACTTTACACCACCTTATAACCACAAACTAG`, the fluorescence intensity was 600 a.u.
For `CCTAACTACTATATCTTCGTGGGATAGCTTCGTACA`, the fluorescence intensity was 494 a.u.
With `TGTACGAAGCTATGAAACATCAGTATAGTAGTTAGG` the fluorescence intensity was 552 a.u.

Further values, each from its own experiment
`PhoQ, residues 284 288 289 292 302 303 TYGVAM` gave a fold induction of 2.65 (PhoP, residues 12 14 15 18 19 NQAHL (Escherichia coli, UniProt P23836); Sort-seq, refers to: YFP reporter; E. coli; PhoQ-PhoP variant library, together with: 10 µM Mg2+; baseline: high Mg2+ state, higher = stronger signaling).
